# Assay results pooled from the literature.
# Every numbered part comes from another study and shows a few of its results, in no order.

# Series 1 — method: RNA Bind-n-Seq; molecule type: RNA; matrix: in vitro; concentration: not given; relative to: input RNA pool; reading: higher = stronger binding
# Target: RING finger protein unkempt homolog, zinc fingers 1-6, GST-SBP tag (UNK, Homo sapiens, UniProt Q9C0B0, residues 30-357)
# Chain of UniProt Q9C0B0 (30-357, looked up): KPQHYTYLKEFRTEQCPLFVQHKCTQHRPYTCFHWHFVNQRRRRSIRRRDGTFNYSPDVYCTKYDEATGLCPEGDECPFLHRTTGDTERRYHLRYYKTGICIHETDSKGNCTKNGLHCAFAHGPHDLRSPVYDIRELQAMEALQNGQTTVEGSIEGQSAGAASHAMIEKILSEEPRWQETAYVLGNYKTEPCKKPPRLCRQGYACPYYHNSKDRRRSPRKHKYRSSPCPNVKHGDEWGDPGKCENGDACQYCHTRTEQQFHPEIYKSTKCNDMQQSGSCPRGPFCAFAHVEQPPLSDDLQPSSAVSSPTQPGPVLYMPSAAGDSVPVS
# Notes: RNA with constant flanks, human and mouse sites, ends assumed
# Constant ends, left off below: GGGAGUUCUACAGUCCGACGAUC … CAACAGAGGAUUGAGCAUCA
Sequence,bound/input enrichment [ratio]
GCUGUGCUGGGUUAACAGCUUCCUUCCCUUUCUGUGUAGCAGUCUUGAAAUGUUCUGUUUAAAUCAGUAGGCUUAAUGUGUUCUGGGUAUUUAUCUCCUUGUAUUUUAAAUAUAUGUAGU,1.05
GGAGAGGCCCAGGCAGCGGCGGCGGCGGCGGCUCUCGGGUUGCGGUGAAGAAUGUCAGCCACUAGCGUGGAUCAGAGACCUAAAGGGCAAGGAAAUAAAGUUUCAGUACAAAACGGUUCG,0.232
CAGGGCCAAAACUGGAACCAAGGAUUUAAUAACUAUUAUGAUCAAGGAUAUGGAAAUUACAAUAGUGCCUAUGGUGGUGAUCAAAACUAUAGUGGCUAUGGCGGAUAUGAUUAUACUGGG,1.07
GUUUAGAAUUAAUGAAACAGUUGGCGUUCACUGUCAGCAGCAUAGUGUGAUUUUGAAUGAAUUAGGCAGGAAUUCAAGAUUACUACUCUUAGCUCGCUCGCUCUCUCUCUCUCUCCACCG,2.31
UGAAGGUUAUUUUGUUGUAUUUAGUAUUGGAAGAGUUGGUUUUCAGAGCAUUUCAGAAUGUUGGAAGCACCGCUGUCCUUUUGUUAGUAUAUAAGGCCUUUUAGCAAAGGUUUUCUCCUU,0.979
UUCAUCUCUCAUUUUAUAUGUCCAGAAAUGGCUUUGAAUUUUAAGCAAUUACUAGUUUUAAUUAGCUCUGCCCUCAUGAAGUAUUAUUAUAAUUCACCAUAAACAGCUAUCUGUCUGAAU,28.8
GUAAAUUAUGUAAUGCAAAAUUUUUUUAAUCUUCGCCUUAAUACUUUUUUAUUUUGUUUUAUUUUGAAUGAUGAGCCUUCGUGCCCCCCCUUCCCCCUUUUUUGUCCCCCAACUUGAGAU,0.661
GCCUCACCGUUAGACCAGAACGGAAGCUUCAAUGUUGUUAUUAAAGAGGAACCUCUAGAUGAUUAUGACUACGAACUUGGUGAGUGCCCAGAAGGGGUCACUGUGAAACAGGAAGAGACA,0.386
UUCCUUCUCCACCCCCGCUCUCUCUCUCUUGGCCUGAGAUCUCUGUGCAGGAACCAAGAUGGGGCUGAAGCCUCUGGAGGCAGUUGGUUGGGGGCGGGCAGGCAGGAGGCCCUCCCUCCA,0.31
CUCUCUCCAUACCAUCAGUUUCUCAGUUCCAGAAGUUAUACCUUUAUUUUGAGCUGUGUAUAGGUAGAAUAAAAAAUUCCUUUCAUAUCGUUAUUGUACAAAAAGUAAAGAGUAUCCUAA,0.848
ACUAAAAGCAAGUGGGGAAUGAUUCCCCGGGGGCCAGCAUCUCAAUUUUAUAUUACCCCCAGUACAUCCCUAAGUCCUCGACAGAGUGGACCACAGUGGAAAGGCCCCAAACCAGCUUUU,0.226

# Series 2 — method: RNA Bind-n-Seq; molecule type: RNA; matrix: in vitro; concentration: 200 nM; notes: whole 134-nt RNA, ends assumed; added: 150 mM LiCl; relative to: input library; reading: higher = stronger binding; all molecules: 7-deaza-guanosine replaces G
# Target: Fragile X messenger ribonucleoprotein 1, C-terminal low-complexity region (Fmr1, Mus musculus, UniProt P35922)
# Constant ends, left off below: GGGAGUUCUACAGUCCGACGAUC … UGGAAUUCUCGGGUGUCAAGG
Sequence,log2 enrichment
GCAGGAAGUAAAAACAAAUGGAAAUGCUUCGGAUAGUGGCAGGGGUGGGGGUUGCUAAGGAAAGGGUGGGAUGGGAGUGGGUAAAGACUU,1.31
UCAAGUCCUGUGCUACACAUCGUAUGUACCGAAUCGGAGGUUUUUGGUUUUUGGAAAGUAUUAUGUUACGCCGUUCGGAUCUGCACUUCC,-1.24
CUCAAGUCCUGUGCUACACAUCGUAUGUACCGAAUCGGGGAGGGAGGGGAGGGAAAGUAUUAUGUUACGCCGUUCGGAUCUGCACUUCCA,-0.737
CAAGUCCUGUGCUACACAUCGUAUGUACCGAAUCGGGGUGGGGUGGGGUUUGGGGAAAGUAUUAUGUUACGCCGUUCGGAUCUGCACUUC,-0.904
UCCUGUGCUACACAUCGUAUGUACCGAAUCGGGGAAAAAAGGAAAAAAGGAAAAAAGGGGAAAGUAUUAUGUUACGCCGUUCGGAUCUGC,-0.635
CACAGACAACACGCACCCACACAGACACAGUGGGAAGGGGUUGGGAUGGGGACAGGGUGCACAGCAGGGCGGGGUAGGACCCCAGCCCCU,-1.07
GCAGGAAGUAAAAACAAAUGGAAAUGCUUCGGAUAGUGGCAGGGGUGGGGGUUGCUAAGGAAAGGGUGGGAUAGGAGUGGGUAAAGAGUU,1.44
UAACUUCAGAGGAGGAUCUGAUGGAUAUGGCAGUGGACGUGGAUUUGGGGAUGGCUAUAAUGGGUAUGGAGGAGGACCUGGAGGUGGCAA,0.414
UCCUGUGCUACACAUCGUAUGUACCGAAUCGGGGUUUUUGGGGUUUUUGGGGUUUGGGGAAAGUAUUAUGUUACGCCGUUCGGAUCUGCA,-0.504
UGGGAGGUGGAUUUUGUUUAUUUUUUUAGCUCAUUUCCAGGGGUGGGAAUUUUUUGUUAAUAUGUGUCAUGAAUAAAGUUGUUUUUGAAA,-0.517
CUCAAGUCCUGUGCUACACAUCGUAUGUACCGAAUCGGAAAGGUUUUUGGAGGAAAGUAUUAUGUUACGCCGUUCGGAUCUGCACUUCCA,-0.622

# Series 3 — method: RNA Bind-n-Seq; molecule type: RNA; matrix: in vitro; concentration: 365 nM; relative to: no-protein control; reading: higher = stronger binding
# Target: RNA binding protein fox-1 homolog 2, RRM domain, GST-SBP tag (RBFOX2, Homo sapiens, UniProt O43251-10, residues 100-194)
# Notes: natural RNA segment, single round, ends assumed
# Constant ends, left off below: GGGAGUUCUACAGUCCGACGAUC … UGGAAUUCUCGGGUGCCAA
# Construct (chain): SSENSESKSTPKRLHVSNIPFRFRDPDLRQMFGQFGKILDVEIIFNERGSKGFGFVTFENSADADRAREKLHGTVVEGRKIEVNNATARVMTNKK
Sequence,RBNS enrichment (R)
CUUGGGUGACUGAUGGUUUAACUUGGUAAGUUGUAAUCUUUCCUGAAAGAGGAAGGAGCUGAAGUUGGUUGGCCCUGCUGCACCCCCUUACAAGGUUGUGAGGCCCUCUC,0.231
CAGUGACCACUGAGGCCCCAUCGCUCCUCCGCUGGAAGCCGCCACGCCAGCCAGCCAGGCCGCAGCAGCAUCUGCCUCGAGGCUGCAGCUCCAGCCUGUAACCAGAUGUG,0.508
UAGCUGAUUUCCAUCCAUUGGCUAAUGGCCAACUUCAUGUCCUUGGGUAACUUGCCACCACCCUGGAUCCAAGUUCCCAUGGAGGGGAAAAUUAGGACAUUUAGUAGUGA,0.487
UUAGCUAGAUUGUACAUACUUGCAGAUUUAACAAAAUUUUAGGGAAAUUGAAAAAGACAUGUAGAAUUUGUUGUCUUCUGCUAAGCACGAAAAGUUAAGAUAUCUGCUUA,1.66
GAAAACUACACUGCUAAGCCCUGGACUUUGCCCAACCCCUUUCUAGGACCGUUUUCUCCCUCUCUCUUGUCCCUAUGGUAAAGUUCUCCCUGGCGUCCUUCUGAAACUAC,0.611
CUGUAGAUGCACAGUAGUGUUUUCCCAGAGCAUGUUCAAAAGCCCUGGGUUCAAUCACAAUACUGAAAAGUAGGCCAAAAAACAUUCUGAAAAUGAAAUAUUUGGGUUUU,0.388
CUCUCUCCUCCCUUCUGCCCUCCUUGCAUUGUGAUGAUCUAGUGGGCAUGUCUGUCACCUGGACAAUUGCCUCUUCUGACUAUAACCUCUUAAUAGUUGUGUAUAAUGAA,0.661
AUAUAGGCCCCCAAAAUGAUCGUAGUACAUGCCAGUCAUUUCUCAGUGAAAUAAAUACAAUACCAGAGUACAUUAUGGGUUUUAUUGCUUUCUUUUAUGGUAGACCUGUU,0.357
CUGACUUGAACUCACAGUCGCCAAGUCUACCUAUCUUUCUUGGAAGCAGUCUUUCAAAAUUCCUACUUGUAUAUUCAUCCAUUGUUGACAAGGACAAAAUCAGUUGUAUU,0.606

# Series 4 — method: protein-binding microarray; molecule type: double-stranded DNA, one strand shown; matrix: in vitro; concentration: 2200 nM top; notes: 60-bp whole probe; added: salmon DNA 0.4 mg/ml; relative to: random background probes; reading: higher = stronger binding; constant ends, left off below: GCCTAGCAC … GTCTTGATTCGCTTGACGCTGCTG
# Target: Interferon regulatory factor 7, full length, phosphomimetic (IRF7, Homo sapiens, UniProt Q92985, residues 1-503, S471D/S472D/S475D/S476D/S477D/S483D/S484D/S487D)
# Chain of UniProt Q92985 (whole entry, unmodified, looked up): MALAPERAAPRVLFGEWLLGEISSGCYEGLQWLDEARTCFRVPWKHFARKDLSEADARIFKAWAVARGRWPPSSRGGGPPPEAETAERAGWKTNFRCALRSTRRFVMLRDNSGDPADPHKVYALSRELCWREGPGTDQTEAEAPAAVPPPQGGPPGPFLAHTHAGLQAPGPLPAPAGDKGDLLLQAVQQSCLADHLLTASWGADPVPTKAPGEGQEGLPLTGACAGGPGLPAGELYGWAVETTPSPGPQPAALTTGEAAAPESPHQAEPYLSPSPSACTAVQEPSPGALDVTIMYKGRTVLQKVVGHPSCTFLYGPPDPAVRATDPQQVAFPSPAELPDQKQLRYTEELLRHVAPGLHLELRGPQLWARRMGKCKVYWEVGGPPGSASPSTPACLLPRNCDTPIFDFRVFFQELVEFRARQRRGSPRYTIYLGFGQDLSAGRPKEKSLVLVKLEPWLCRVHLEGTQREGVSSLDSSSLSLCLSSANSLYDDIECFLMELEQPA
Sequence,fitted relative affinity
TTAGGTCTCGGTTTAGGTTAGTGCTAG,2.32 z-score
TACGGTATCGGACTGGGGACGTGCTAG,0.0123 z-score
GACGGACTGGACCATCGGGACGTGCTA,-1.01 z-score
GACGGTCTCGACTATCGGGACGTGCTA,-0.466 z-score
TTGGTTTCTGGTTTATTGAGGTGCTAG,4.88 z-score
TTAGGTTTCCTTCTCCGTTAGTGCTAG,2.52 z-score
TCAATATTCACTATAGTACTGTGCTAG,1.17 z-score
TTAGATTTCCGTTCCGATTAGTGCTAG,2.92 z-score
ACGTTTTTCATTTTTTTTTTGTGCTAG,4.27 z-score
AACGATTTCAGTTCCGAGACGTGCTAG,1.86 z-score
GACGATAACGGGTTTCGAGACGTGCTA,1.07 z-score
GACGATTTCAGTGTCGAGACGTGCTAG,0.533 z-score
TTAGAACTGGGGTTTCGATTTGTGCTA,6.11 z-score
TTAGGTATCGGTCTGGGTTAGTGCTAG,0.454 z-score
TCAAATTCCTGAAATCTCACTGTGCTA,-0.153 z-score
GACGATCTCAGTTTCGAGTCGTGCTAG,5.97 z-score
AGATATTCAGGTATATAAAGGTGCTAG,-0.125 z-score
GATGGGCTACCTCTCTTAGAGTGCTAG,-0.763 z-score
TTAGGACTAGGGTATCGGTTAGTGCTA,-0.443 z-score
TCAGCTTCCTCTCTGCCACTGTGCTAG,1.55 z-score
AATTTTTACTTTCTGAATGCGTGCTAG,4.61 z-score
TTAGGACTGGGTCTAGGTTAGTGCTAG,-0.775 z-score
AGAAATTTCTTTCTAATTCAGTGCTAG,0.698 z-score
GACGGTTTCGATTCCGGGACGTGCTAG,9.6 z-score
TTAGGGATCGGGTTTCGGTTAGTGCTA,2.88 z-score

# Repeated from above (series 4):
Sequence,fitted relative affinity
GACGGTCTCGACTATCGGGACGTGCTA,-0.466 z-score
GATGGGCTACCTCTCTTAGAGTGCTAG,-0.763 z-score
TCAATATTCACTATAGTACTGTGCTAG,1.17 z-score
AACGATTTCAGTTCCGAGACGTGCTAG,1.86 z-score
GACGATCTCAGTTTCGAGTCGTGCTAG,5.97 z-score
TTAGGTATCGGTCTGGGTTAGTGCTAG,0.454 z-score
TACGGTATCGGACTGGGGACGTGCTAG,0.0123 z-score
